Experimental data pooled from the literature.
Numbered parts are unrelated; each lists some results of a single study. Positions count from the first letter of the parent shown.

Study 1 — technique: protein-binding microarray; form: double-stranded DNA, one strand shown; medium: in vitro; concentration: not given; reading: higher = stronger binding
Target: Protein C-ets-1 (ETS1, Homo sapiens, UniProt P14921, residues 1-441, K379A, full length assumed)
UniProt P14921, sequence (whole entry, unmodified, looked up): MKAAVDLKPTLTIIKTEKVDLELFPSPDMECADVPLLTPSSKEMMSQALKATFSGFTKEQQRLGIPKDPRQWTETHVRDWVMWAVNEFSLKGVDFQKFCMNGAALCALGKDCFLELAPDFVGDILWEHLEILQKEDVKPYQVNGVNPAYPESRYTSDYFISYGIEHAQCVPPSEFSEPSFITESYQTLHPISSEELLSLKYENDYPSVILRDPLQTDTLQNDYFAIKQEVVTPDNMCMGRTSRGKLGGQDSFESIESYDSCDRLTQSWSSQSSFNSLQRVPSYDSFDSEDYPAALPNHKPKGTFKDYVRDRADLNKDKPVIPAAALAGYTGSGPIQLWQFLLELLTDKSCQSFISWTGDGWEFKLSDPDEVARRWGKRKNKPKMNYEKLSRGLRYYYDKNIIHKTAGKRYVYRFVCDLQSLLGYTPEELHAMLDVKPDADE
Notes: k-mer, scored over probes, only values ≥0.25
`ATACCCCG` has an E-score of 0.337.
For `ATTTCCGC`, the E-score was 0.255.
`CGTGTCGC` has an E-score of 0.277.
For `CATAATAC`, the E-score was 0.314.
The E-score of `CGGTGGGC` is reported as 0.284.
With `ACGACGTA` the E-score was 0.292.
`CTCATATA` has an E-score of 0.275.
With `AACGGAAA` the E-score was 0.253.

Study 2 — target: vanadate, free oxyanion; technique: microfluidic competitive inhibition; medium: in vitro, cell-free expressed; concentration: not given; reading: lower = stronger binding
Notes: derived from inhibition constants, unchanged parent 676 nM
Parent: PafA, mature enzyme, eGFP fusion (Elizabethkingia meningoseptica, UniProt Q9KJX5); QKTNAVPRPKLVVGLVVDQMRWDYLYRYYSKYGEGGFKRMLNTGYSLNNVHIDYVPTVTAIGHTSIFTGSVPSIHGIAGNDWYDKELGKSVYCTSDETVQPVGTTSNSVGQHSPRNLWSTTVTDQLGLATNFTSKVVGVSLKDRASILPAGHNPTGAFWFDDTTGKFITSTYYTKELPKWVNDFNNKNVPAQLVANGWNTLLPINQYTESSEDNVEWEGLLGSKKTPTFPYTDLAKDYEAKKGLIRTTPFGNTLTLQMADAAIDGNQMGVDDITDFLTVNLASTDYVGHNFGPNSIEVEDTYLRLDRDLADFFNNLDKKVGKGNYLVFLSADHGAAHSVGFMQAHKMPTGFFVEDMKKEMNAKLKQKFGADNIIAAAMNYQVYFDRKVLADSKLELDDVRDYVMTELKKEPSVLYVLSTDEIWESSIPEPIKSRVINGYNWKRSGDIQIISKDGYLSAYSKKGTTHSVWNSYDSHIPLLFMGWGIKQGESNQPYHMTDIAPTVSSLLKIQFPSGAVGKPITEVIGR
For `N372V`, “oxyanion analog dissociation constant” read 862 nM.
`N205V` — result for “oxyanion analog dissociation constant”: 693 nM.
Under “oxyanion analog dissociation constant”, `N290V` is recorded as 885 nM.
Under “oxyanion analog dissociation constant”, `D124G` is recorded as 994 nM.
Under “oxyanion analog dissociation constant”, `H289G` is recorded as 2800 nM.
For `F250G`, “oxyanion analog dissociation constant” read 449 nM.
For `N186V`, “oxyanion analog dissociation constant” read 678 nM.
Under “oxyanion analog dissociation constant”, `I422G` is recorded as 797 nM.
`L417G` — result for “oxyanion analog dissociation constant”: 989 nM.
`A282V`: “oxyanion analog dissociation constant” 23900 nM.
Under “oxyanion analog dissociation constant”, `Y402G` is recorded as 730 nM.
For `G517A`, “oxyanion analog dissociation constant” read 657 nM.
`L126G` — result for “oxyanion analog dissociation constant”: 1310 nM.
Under “oxyanion analog dissociation constant”, `H345G` is recorded as 696 nM.
`K393G` — result for “oxyanion analog dissociation constant”: 599 nM.
`Y83V`: “oxyanion analog dissociation constant” 572 nM.
`E354G`: “oxyanion analog dissociation constant” 646 nM.
Under “oxyanion analog dissociation constant”, `D401V` is recorded as 657 nM.
Under “oxyanion analog dissociation constant”, `L148V` is recorded as 807 nM.
`V109G`: “oxyanion analog dissociation constant” 700 nM.

Study 3 — technique: RNAcompete; form: RNA; medium: in vitro; concentration: 20 nM; notes: 7-mer, probes averaged, single round; baseline: mean of 7-mers; reading: higher = stronger binding
Target: PABPC1L2, full length, GST fusion (mouse, UniProt A0ABA7IW68)
Construct (chain): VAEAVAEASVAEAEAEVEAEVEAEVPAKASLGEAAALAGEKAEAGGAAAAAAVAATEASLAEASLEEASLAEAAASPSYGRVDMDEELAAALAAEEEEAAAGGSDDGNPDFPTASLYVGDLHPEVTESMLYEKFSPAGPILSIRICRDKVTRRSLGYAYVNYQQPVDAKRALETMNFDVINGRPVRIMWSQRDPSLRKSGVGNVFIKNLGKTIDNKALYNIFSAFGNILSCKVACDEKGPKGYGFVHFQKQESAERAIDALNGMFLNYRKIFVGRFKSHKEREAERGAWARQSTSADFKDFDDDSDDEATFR
For `CCCGAUU`, the 7-mer Z-score was -0.266.
`CACGCCU` has a 7-mer Z-score of -0.202.
With `GCACUUG` the 7-mer Z-score was -0.137.
The 7-mer Z-score of `GACCGAA` is reported as 0.0642.
`AGAUUUC` gave a 7-mer Z-score of -0.304.
`GUUCGGA` gave a 7-mer Z-score of -0.215.
For `AUCAGGU`, the 7-mer Z-score was -0.104.
For `CAUGUCU`, the 7-mer Z-score was -0.202.

Study 4 — target: CCND3, cyclin fold, Cln2 fusion (human); technique: yeast growth competition, sequencing; medium: yeast; notes: weak parent motif; baseline: not given; reading: higher = stronger binding
Parent: viral docking peptide; TSVRRALFTGGSD; partner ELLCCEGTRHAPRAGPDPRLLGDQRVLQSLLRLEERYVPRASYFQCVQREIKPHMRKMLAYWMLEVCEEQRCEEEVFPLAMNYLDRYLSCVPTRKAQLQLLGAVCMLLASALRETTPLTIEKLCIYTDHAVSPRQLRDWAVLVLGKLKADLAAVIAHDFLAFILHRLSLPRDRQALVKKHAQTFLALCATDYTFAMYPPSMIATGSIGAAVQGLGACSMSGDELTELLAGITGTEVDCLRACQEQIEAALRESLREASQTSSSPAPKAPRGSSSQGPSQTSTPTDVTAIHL
`TSVRRARFTGGSD [L7R]`: “normalised enrichment score” 0.642.
For `TSVRRALFTLGSD [G10L]`, “normalised enrichment score” read 0.619.
For `TSVRNALFTGGSD [R5N]`, “normalised enrichment score” read 0.227.
`TQVRRALFTGGSD [S2Q]`: “normalised enrichment score” -0.417.
For `TSVRRALFTGGID [S12I]`, “normalised enrichment score” read 0.33.
`TSVRRALFMGGSD [T9M]`: “normalised enrichment score” 0.315.
`TSVRHALFTGGSD [R5H]` — result for “normalised enrichment score”: 0.407.
Under “normalised enrichment score”, `TSVRRALCTGGSD [F8C]` is recorded as -0.195.
Under “normalised enrichment score”, `TSVRRAPFTGGSD [L7P]` is recorded as 0.0154.
Under “normalised enrichment score”, `TSVRKALFTGGSD [R5K]` is recorded as 0.454.
`TSVRRALFQGGSD [T9Q]`: “normalised enrichment score” -0.394.
Under “normalised enrichment score”, `TSVRRAFFTGGSD [L7F]` is recorded as -0.0681.
`TSVRRALFTFGSD [G10F]` — result for “normalised enrichment score”: -0.145.
`TSVRRALFYGGSD [T9Y]` — result for “normalised enrichment score”: 0.186.
`TSLRRALFTGGSD [V3L]`: “normalised enrichment score” -0.298.
For `TSVRRALFTGTSD [G11T]`, “normalised enrichment score” read 0.203.
`TSVRRALFKGGSD [T9K]` — result for “normalised enrichment score”: 0.245.
Under “normalised enrichment score”, `TSERRALFTGGSD [V3E]` is recorded as -0.106.
`TSVRRALFPGGSD [T9P]` — result for “normalised enrichment score”: -0.0305.
Under “normalised enrichment score”, `TSVRRALGTGGSD [F8G]` is recorded as -0.115.
`TSVRMALFTGGSD [R5M]` — result for “normalised enrichment score”: -0.00313.
For `TSVVRALFTGGSD [R4V]`, “normalised enrichment score” read -0.164.

Some of these lines once more (study 2):
`K393G` — result for “oxyanion analog dissociation constant”: 599 nM.
`Y83V`: “oxyanion analog dissociation constant” 572 nM.
`E354G`: “oxyanion analog dissociation constant” 646 nM.
